Published values of several laboratories.
Each line is one published result; not all experiments were run side by side.
TDP1: Tyrosyl-DNA phosphodiesterase 1 (TDP1, Homo sapiens, UniProt Q9NUW8)
UniProt Q9NUW8, sequence (whole entry, looked up): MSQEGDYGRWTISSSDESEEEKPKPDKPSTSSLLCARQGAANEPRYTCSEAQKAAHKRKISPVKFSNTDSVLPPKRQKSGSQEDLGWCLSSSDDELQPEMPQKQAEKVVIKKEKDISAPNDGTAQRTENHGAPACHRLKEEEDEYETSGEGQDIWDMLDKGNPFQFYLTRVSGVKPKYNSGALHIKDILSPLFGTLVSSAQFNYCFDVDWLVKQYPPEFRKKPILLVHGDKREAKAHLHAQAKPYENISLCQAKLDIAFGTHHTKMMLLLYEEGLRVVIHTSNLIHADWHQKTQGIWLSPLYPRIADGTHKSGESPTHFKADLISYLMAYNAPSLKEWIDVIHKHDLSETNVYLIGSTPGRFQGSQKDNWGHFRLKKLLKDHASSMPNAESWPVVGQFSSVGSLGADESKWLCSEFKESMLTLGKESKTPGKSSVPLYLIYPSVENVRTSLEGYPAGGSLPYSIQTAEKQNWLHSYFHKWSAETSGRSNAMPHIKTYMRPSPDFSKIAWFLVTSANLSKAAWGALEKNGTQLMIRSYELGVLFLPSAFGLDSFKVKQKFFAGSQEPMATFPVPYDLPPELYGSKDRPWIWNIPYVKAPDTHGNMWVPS

Structure (SMILES) | tested on | assay | system | setting | quantity | result
Nc1nc(-c2ccc(OC(F)(F)F)cc2)nc2[nH]nc(Nc3ccc(Cl)cc3)c12 | rhinovirus A2 | viral cytopathic effect | HeLa | – | IC50 | 3.1 µM
c1ccc2c(Cc3c[nH]c4ccccc34)c[nH]c2c1 | Phocaeicola dorei | bacterial growth, inhibitor, OD600 | – | anaerobic | IC50 | > 50 µM
COC1C=COC2(C)Oc3c(C)c(O)c4c(c3C2=O)C2=NC3(CCN(CC(C)C)CC3)NC2=C(NC(=O)C(C)=CC=CC(C)C(O)C(C)C(O)C(C)C(OC(=O)Nc2cccnn2)C1C)C4=O (centres unmarked) | Mycobacteroides abscessus | bacterial growth | subsp. abscessus K21 clinical isolate | – | IC50 | 0.025 µM
CC(C)[C@@H]1NC(=O)[C@@H](CCCNC(=N)N)NC(=O)[C@H]([C@@H](C)O)NC(=O)[C@@H](CCCN)NC(=O)[C@H](Cc2ccccc2)NC(=O)[C@@H](Cc2ccc(F)cc2)NC1=O | Balamuthia mandrillaris | parasite growth, ATP luminescence | – | – | IC50 | 12 µM
CC(=O)C(C)(c1c[nH]c2ccccc12)c1c[nH]c2ccccc12 | Phocaeicola dorei | bacterial growth, inhibitor, OD600 | – | anaerobic | IC50 | > 50 µM
Cc1ccc(-c2nc(N)c3c(Nc4ccccc4)n[nH]c3n2)cc1 | rhinovirus A2 | viral cytopathic effect | HeLa | – | IC50 | 1.26 µM
CC(C)[C@@H]1NC(=O)[C@@H](CCCNC(=N)N)NC(=O)[C@H]([C@@H](C)O)NC(=O)[C@@H](CCCN)NC(=O)[C@H](Cc2ccccc2)NC(=O)[C@@H](Cc2ccc(F)c(F)c2)NC1=O | Balamuthia mandrillaris | parasite growth, ATP luminescence | – | – | IC50 | 13.1 µM
Nc1nc(-c2ccccc2)nc2[nH]nc(Nc3ccc(OC(F)(F)F)cc3)c12 | rhinovirus A2 | viral cytopathic effect | HeLa | – | IC50 | 24.3 µM
O=C(O)c1ccc(Nc2c(-c3ccccc3)nc3ccc(CON=Cc4cccc5cccc(C(=O)O)c45)cn23)cc1 (mixture of isomers) | TDP1 | enzyme activity, inhibitor | – | 100 µM, unpurified compound | inhibition | -8.2%
c1ccc(CC(c2c[nH]c3ccccc23)c2c[nH]c3ccccc23)cc1 | Phocaeicola dorei | bacterial growth, inhibitor, OD600 | – | anaerobic | IC50 | > 50 µM
N=C(N)c1ccc(OCCCCCOc2ccc(C(=N)N)cc2)cc1 | Balamuthia mandrillaris | parasite growth | – | – | IC50 | 18 µM
CSc1ccc(Nc2n[nH]c3nc(-c4ccccc4)nc(N)c23)cc1 | rhinovirus A2 | viral cytopathic effect | HeLa | – | IC50 | 23 µM
O=C(O)c1ccc(Nc2c(-c3ccc(CON=Cc4cccn4-c4nccc(-c5cccs5)n4)cc3)nc3cc(-c4ccccc4)ccn23)cc1 (mixture of isomers) | TDP1 | enzyme activity, inhibitor | – | 100 µM, unpurified compound | inhibition | 75.6%
c1ccc2c([C+](c3c[nH]c4ccccc34)c3c[nH]c4ccccc34)c[nH]c2c1 | Phocaeicola dorei | bacterial growth, inhibitor, OD600 | – | anaerobic | IC50 | > 50 µM
CCCCC(CC)COC(=O)CC(C(=O)OCC(CC)CCCC)S(=O)(=O)O.COC(=O)Nc1nc2cc(C(=O)c3ccccc3)ccc2[nH]1 (centres unmarked) | Cryptococcus neoformans var. grubii | EUCAST broth microdilution | KN99α reference strain | 72 h, 37 °C, RPMI with 2% glucose | IC50 | 0.312 µM
CC(C)CC(c1c[nH]c2ccccc12)c1c[nH]c2ccccc12 | Phocaeicola dorei | bacterial growth, inhibitor, OD600 | – | anaerobic | IC50 | > 50 µM
CCc1ccc(-c2nc(N)c3c(Nc4ccc(F)cc4)n[nH]c3n2)cc1 | rhinovirus A2 | viral cytopathic effect | HeLa | – | IC50 | 1.15 µM

Some of these lines once more:
Structure (SMILES) | tested on | assay | system | setting | quantity | result
COC1C=COC2(C)Oc3c(C)c(O)c4c(c3C2=O)C2=NC3(CCN(CC(C)C)CC3)NC2=C(NC(=O)C(C)=CC=CC(C)C(O)C(C)C(O)C(C)C(OC(=O)Nc2cccnn2)C1C)C4=O (centres unmarked) | Mycobacteroides abscessus | bacterial growth | subsp. abscessus K21 clinical isolate | – | IC50 | 0.025 µM
CC(C)[C@@H]1NC(=O)[C@@H](CCCNC(=N)N)NC(=O)[C@H]([C@@H](C)O)NC(=O)[C@@H](CCCN)NC(=O)[C@H](Cc2ccccc2)NC(=O)[C@@H](Cc2ccc(F)cc2)NC1=O | Balamuthia mandrillaris | parasite growth, ATP luminescence | – | – | IC50 | 12 µM
